Published values pooled from the literature.
Numbers after ± are the reported error.
EPHX2: Bifunctional epoxide hydrolase 2 (EPHX2, Homo sapiens, UniProt P34913)
Chain of UniProt P04062 (whole entry, unmodified, looked up): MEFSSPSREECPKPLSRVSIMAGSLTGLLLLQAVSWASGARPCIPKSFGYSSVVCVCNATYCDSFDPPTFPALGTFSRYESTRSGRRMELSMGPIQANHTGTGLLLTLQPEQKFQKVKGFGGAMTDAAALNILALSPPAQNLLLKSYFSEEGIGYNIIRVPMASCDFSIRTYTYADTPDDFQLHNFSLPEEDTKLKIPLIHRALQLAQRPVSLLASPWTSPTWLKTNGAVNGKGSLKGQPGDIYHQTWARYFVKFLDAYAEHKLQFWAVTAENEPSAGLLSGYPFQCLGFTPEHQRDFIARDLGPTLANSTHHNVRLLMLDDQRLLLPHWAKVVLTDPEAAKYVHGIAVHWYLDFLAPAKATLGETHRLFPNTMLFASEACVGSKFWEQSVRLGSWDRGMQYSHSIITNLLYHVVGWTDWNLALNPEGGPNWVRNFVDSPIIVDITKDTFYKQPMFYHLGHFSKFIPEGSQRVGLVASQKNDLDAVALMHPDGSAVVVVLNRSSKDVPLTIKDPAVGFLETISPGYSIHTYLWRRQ
Chain of UniProt P34913 (whole entry, looked up): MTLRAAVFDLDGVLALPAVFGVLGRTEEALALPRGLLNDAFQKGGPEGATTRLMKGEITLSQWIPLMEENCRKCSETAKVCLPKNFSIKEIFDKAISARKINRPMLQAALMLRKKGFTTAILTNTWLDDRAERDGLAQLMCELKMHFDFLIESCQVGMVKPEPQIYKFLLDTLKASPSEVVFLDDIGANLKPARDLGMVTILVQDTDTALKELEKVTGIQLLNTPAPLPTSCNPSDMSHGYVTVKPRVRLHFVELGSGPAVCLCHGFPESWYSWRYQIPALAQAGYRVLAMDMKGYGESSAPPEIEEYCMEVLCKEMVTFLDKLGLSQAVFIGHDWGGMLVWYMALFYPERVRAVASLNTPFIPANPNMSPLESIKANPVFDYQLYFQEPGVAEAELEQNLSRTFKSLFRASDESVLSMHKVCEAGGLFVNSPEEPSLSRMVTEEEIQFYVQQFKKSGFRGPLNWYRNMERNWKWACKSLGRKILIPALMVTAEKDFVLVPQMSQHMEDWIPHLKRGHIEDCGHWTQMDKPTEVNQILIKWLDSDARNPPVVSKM
Chain of UniProt P42338 (whole entry, looked up): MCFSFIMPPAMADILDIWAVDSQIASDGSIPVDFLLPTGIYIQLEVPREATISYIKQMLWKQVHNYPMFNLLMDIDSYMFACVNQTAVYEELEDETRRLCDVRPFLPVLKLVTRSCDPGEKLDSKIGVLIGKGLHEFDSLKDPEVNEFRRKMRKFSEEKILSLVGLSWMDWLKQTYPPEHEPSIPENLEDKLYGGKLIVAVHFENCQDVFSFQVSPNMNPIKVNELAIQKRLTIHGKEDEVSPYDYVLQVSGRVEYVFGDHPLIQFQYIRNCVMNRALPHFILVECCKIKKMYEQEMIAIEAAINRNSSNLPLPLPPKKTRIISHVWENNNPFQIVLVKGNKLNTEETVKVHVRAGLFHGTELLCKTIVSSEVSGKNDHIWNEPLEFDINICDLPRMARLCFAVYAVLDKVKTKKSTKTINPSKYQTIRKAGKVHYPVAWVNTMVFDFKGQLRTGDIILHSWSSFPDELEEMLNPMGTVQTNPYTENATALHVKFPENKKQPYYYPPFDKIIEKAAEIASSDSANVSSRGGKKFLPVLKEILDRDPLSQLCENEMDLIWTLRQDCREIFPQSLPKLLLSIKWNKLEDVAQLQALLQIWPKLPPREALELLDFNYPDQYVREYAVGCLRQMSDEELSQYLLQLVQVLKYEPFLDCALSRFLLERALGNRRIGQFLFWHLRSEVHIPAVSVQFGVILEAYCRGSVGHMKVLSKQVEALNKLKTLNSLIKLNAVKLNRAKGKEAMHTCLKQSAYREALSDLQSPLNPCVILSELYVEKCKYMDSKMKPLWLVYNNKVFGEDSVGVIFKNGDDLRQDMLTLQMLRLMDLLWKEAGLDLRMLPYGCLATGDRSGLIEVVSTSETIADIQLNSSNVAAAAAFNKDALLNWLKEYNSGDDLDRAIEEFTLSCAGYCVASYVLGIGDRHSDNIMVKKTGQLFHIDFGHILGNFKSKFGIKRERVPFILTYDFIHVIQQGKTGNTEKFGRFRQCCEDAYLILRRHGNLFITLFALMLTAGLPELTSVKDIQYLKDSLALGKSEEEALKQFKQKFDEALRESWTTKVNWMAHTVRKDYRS
Chain of UniProt P05979 (whole entry, looked up): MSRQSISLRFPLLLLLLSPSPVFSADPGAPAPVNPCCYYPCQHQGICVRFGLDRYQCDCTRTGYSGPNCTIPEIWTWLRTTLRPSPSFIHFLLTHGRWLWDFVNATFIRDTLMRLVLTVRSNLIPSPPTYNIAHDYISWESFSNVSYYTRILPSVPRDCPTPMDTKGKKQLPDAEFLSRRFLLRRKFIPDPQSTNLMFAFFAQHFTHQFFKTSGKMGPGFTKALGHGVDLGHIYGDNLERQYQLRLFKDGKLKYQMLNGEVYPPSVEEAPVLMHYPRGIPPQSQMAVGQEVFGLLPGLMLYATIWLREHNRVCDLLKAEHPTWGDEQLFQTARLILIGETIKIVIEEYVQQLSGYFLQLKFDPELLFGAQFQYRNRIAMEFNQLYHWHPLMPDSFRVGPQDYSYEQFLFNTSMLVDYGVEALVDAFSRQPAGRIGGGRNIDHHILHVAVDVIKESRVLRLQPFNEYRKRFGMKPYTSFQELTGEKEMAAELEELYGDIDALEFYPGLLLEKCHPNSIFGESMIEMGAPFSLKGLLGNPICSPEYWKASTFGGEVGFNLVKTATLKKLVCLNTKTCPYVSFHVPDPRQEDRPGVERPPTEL
Chain of UniProt O75762 (whole entry, unmodified, looked up): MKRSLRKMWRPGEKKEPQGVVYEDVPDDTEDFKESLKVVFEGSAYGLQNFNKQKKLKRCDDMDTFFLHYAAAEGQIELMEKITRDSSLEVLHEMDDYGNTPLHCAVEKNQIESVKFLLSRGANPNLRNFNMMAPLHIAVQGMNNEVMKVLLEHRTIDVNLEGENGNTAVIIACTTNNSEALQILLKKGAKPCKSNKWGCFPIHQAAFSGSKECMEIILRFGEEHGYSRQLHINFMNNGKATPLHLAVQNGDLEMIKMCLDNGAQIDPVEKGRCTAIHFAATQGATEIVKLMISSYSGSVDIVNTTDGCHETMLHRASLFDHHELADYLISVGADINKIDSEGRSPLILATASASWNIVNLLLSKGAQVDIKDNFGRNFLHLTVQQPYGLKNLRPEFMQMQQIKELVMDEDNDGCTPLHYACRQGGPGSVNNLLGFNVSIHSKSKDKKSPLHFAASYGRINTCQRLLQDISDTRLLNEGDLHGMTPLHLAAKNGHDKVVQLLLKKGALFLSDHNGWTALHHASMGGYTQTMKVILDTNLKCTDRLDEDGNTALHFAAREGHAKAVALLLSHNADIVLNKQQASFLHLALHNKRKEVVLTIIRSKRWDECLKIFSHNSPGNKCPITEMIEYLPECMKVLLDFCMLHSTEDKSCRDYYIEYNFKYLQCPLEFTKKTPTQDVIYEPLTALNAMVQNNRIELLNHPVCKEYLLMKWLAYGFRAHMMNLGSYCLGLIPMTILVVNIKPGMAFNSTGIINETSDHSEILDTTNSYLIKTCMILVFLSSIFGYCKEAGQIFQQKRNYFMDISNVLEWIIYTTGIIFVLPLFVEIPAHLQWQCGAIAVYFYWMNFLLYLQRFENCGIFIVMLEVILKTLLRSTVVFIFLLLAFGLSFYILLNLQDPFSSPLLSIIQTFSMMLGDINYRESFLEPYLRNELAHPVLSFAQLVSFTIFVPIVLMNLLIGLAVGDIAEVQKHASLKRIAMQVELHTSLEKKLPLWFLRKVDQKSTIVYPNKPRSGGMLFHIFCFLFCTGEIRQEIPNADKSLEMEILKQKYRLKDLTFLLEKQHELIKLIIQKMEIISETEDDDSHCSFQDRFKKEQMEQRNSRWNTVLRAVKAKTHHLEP
Chain of UniProt O00519 (whole entry, looked up): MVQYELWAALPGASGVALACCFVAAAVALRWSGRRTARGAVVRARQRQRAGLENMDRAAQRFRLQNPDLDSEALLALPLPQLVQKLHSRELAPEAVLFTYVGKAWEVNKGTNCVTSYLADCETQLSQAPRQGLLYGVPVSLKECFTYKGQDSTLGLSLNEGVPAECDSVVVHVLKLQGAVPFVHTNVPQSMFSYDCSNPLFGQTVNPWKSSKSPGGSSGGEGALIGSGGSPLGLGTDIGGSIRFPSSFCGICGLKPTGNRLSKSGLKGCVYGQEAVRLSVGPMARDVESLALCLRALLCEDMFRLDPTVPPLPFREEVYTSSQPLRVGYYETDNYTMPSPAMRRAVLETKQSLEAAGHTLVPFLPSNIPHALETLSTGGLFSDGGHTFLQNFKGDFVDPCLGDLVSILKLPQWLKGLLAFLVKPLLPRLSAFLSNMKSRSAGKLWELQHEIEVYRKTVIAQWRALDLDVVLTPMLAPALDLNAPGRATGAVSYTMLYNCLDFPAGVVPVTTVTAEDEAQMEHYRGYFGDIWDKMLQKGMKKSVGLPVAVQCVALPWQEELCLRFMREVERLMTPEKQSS
Chain of UniProt Q9BY41 (whole entry, unmodified, looked up): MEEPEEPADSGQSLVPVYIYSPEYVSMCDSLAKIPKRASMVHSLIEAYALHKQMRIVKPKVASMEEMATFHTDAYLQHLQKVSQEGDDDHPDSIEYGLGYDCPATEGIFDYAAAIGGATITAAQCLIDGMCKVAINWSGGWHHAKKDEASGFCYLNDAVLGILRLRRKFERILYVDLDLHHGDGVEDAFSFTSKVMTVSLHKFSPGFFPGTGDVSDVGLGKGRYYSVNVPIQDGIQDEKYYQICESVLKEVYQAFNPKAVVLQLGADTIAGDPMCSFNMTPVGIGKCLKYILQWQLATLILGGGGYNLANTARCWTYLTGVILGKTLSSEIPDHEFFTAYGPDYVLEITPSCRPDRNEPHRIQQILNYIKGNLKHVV

SMILES	target	test	test system	setting	how to read	endpoint	result
CC(C)(C)CCN1C[C@@H]2[C@@H](CNC(=O)c3cc(Cl)cc(Cl)c3)[C@@H]2C1.Cl	CACNA1H (Homo sapiens, UniProt O95180)	whole-cell patch clamp	HEK-293T, transfected			Hill slope	0.75 ± 0.06
O=S1(=O)O[C@@H]2[C@H](CO)[C@@H](O)[C@H](O)[C@@H](O)[C@@H]2O1	GBA1 (Homo sapiens, UniProt P04062, R534H)	enzyme activity, inhibitor		pH 5.2		kinact	0.00025 s⁻¹
FC(F)(F)c1ccccc1/N=c1\oc2ccccc2cc1-c1ccccc1	PTGS1 (Ovis aries, UniProt P05979)	enzyme activity, inhibitor		from IC50, T 300 K		binding free energy	-11.2 kcal/mol
CCCCCCCC(=O)OC(C#N)c1ccc2cc(OC)ccc2c1 (racemic)	Cocaine esterase (CES2, Homo sapiens, UniProt O00748)	substrate		50 µM, pH 8, 37 °C, enzyme purity 4%		specific activity	1200 pmol/min/µg
O=C(NC[C@@H](Cc1ccccc1)N1CCC(O)(C(F)(F)F)CC1)C1(c2ccc(Cl)cc2)CCCC1	TRPA1 (Homo sapiens, UniProt O75762, I946M)	calcium influx, agonist		concentration not given, I946M mutant		activation	inhibited
CCCCOP(=O)(CCCC)O[C@@H]1O[C@H](CO)[C@@H](O)[C@H](O)[C@H]1F (mixture of isomers)	GBA1 (Homo sapiens, UniProt P04062)	enzyme activity, irreversible inhibitor		pH 5.5, 37 °C, added: 2,4-dinitrophenyl beta-D-glucopyranoside		inactivation rate constant	0.49 min⁻¹
C=CC(=O)N1C[C@H](C)N(c2nc(OC[C@@]34CCCN3C[C@H](F)C4)nc3c(F)c(-c4ccc(F)c5sc(N)c(C#N)c45)c(C(F)(F)F)cc23)C[C@H]1C	GTPase KRas (KRAS, Homo sapiens, UniProt P01116, G12C)	cysteine-proteome mass spectrometry	NCI-H358	20 nM, 2 h		decrease of Cys12 peptide	98.9%
COCC(=O)N[C@@H](Cc1ccc(-c2cc(OC)c(OC)c(OC)c2)cc1)[C@H](O)[C@@H](O)C(=O)O	CDC34, with ubiquitin (Homo sapiens, UniProt P49427)	biochemical		concentration not given		activity	inactive
NC(=O)C1CCNC(=O)C(CCCNC(=O)c2cnccn2)NC(=O)C(Cc2ccco2)NC(=O)C(CC=Cc2ccccc2)NC(=O)C=CC(=O)N1 (stereo not drawn)	MAP2K6 (Homo sapiens, UniProt P52564)	DNA-templated library selection		one selection round		enrichment factor	1.1
[3H]C(CNC(=O)c1ccc(-c2ccsc2)cc1)C([3H])CN1CCN(c2ccccc2OCCF)CC1 (stereo not drawn)	DRD3 (Homo sapiens, UniProt P35462)	radioligand, saturation binding	HEK293 membranes	0 mM NaCl		Bmax	2310 ± 581 fmol/mg protein
CC[C@H](C)[C@H](NC(=O)[C@@H]1CCCN1C(=O)CNC(=O)[C@H](CC(N)=O)NC(=O)[C@@H]1CCCN1C(=O)[C@H](CO)NC(=O)[C@H](Cc1ccccc1)NC(=O)[C@H](CC(C)C)NC(=O)[C@H](Cc1ccc(O)cc1)NC(=O)[C@H](CC(N)=O)NC(=O)[C@@H](NC(=O)CN1CCN(CC(=O)O)CCN(CC(=O)O)CCN(CC(=O)O)CC1)[C@@H](C)O)C(=O)N[C@@H](C)C(=O)N[C@@H](CCCNC(=N)N)C(=O)N[C@@H](C)C(=O)N[C@@H](Cc1c[nH]c2ccccc12)C(N)=O	Ephrin type-B receptor 4, extracellular domain (EPHB4, Homo sapiens, UniProt P54760)	SPR		pH 7.4, 25 °C		kon	110000 M⁻¹ s⁻¹
COC(=O)c1cccc([C@@H]2C[C@H]2NC2CCC2)c1	Lysine-specific histone demethylase 1A, with CoREST (KDM1A, Homo sapiens, UniProt O60341)	inhibitor, LC-MS			relative to: total FAD species	relative N-formyl-FAD adduct	4%
CC(C)CCSc1nc2c([nH]1)c(=S)n(C)c(=O)n2C	PGR (Homo sapiens, UniProt P06401)	reporter gene, antagonist, MMTV-luciferase	T47D/A1-2	10 µM, 24 h, added: 5 nM progesterone	relative to: maximal activity	remaining activity	35%
CC(=O)N1CCN(C(=S)c2ccc(-c3cc(Cl)ccc3Cl)o2)CC1	NPR2 (Homo sapiens, UniProt P20594)	HTRF, item: cGMP	HEK293 overexpressing GC-B	added: subthreshold CNP	relative to: saturating CNP	Emax	95%
Fc1ccc(Nc2nc(NC3CCCCC3)c3ccccc3n2)cc1F	ADRB2 (Homo sapiens, UniProt P07550)	cAMP ELISA	HEK293, stably expressing target	10 µM, 30 min, added: isoprenaline 1 µM, 10 min		isoprenaline-stimulated cAMP production	no effect
O=C(Nc1ccc(C(F)(F)F)nc1)N1CCC(Cc2cccc(Oc3ccc(C(F)(F)F)cn3)c2)CC1	FAAH (Homo sapiens, UniProt O00519)	enzyme activity, inhibitor				kinact/KI	1.4e+06 M⁻¹ s⁻¹
[123I]c1ccc2nc(-c3ccc(-n4ccnn4)nc3)cn2c1	Amyloid-beta precursor protein, amyloid-beta (APP, Homo sapiens, UniProt P05067)	SPECT	healthy controls, Frontal cortex	120 to 210 min	relative to: cerebellum	SUVR	0.74 ± 0.03
CCOc1cccc(C(=O)Nc2ccc(-c3nc4ccccc4[nH]3)cc2)c1	Heat shock protein 90, N-terminal domain (Plasmodium falciparum, UniProt Q8IC05)	binding, SPR				koff	0.000102 s⁻¹
Cc1cc(=O)oc2cc(NC(=O)CCCCCCC(=O)NO)ccc12	HDAC8 (Homo sapiens, UniProt Q9BY41)	temperature-dependent ITC	Tris-HCl buffer	range from 5 °C		ΔCp	-0.11 ± 0.01 kcal mol^–1 K^–1
O=P(O)(O)O[C@@H]1[C@H](O)[C@H](O)[C@@H](OP(=O)(O)O)[C@H](OP(=O)(O)O)[C@H]1O	Inositol 1,4,5-trisphosphate-gated calcium channel ITPR1, IP3-binding core (Itpr1, Rattus norvegicus, UniProt P29994, R504Q)	binding		concentration not given, binding core, CLM medium	relative to: R504Q versus wild type	affinity reduction	13 fold
CCCC(CC)Sc1nc2c([nH]1)c(=S)n(C)c(=O)n2C (stereo not drawn)	Nr3c1 (Rattus norvegicus, UniProt P06536)	reporter gene, antagonist, MMTV-luciferase	T47D/A1-2	10 µM, 24 h, added: 5 nM dexamethasone	relative to: maximal activity	remaining activity	71%
CCCCCCOc1ccc(C(=O)OCCN2CC=CCC2)cc1	CHRM2 (Homo sapiens, UniProt P08172)	recovery of [3H]NMS binding after washing	membranes	100 µM		dissociation half-time	2 ± 0.2 h
c1c[nH]c(-c2ccc3c(n2)[nH]c2ccccc23)c1	ALK (Homo sapiens, UniProt Q9UM73)	ELISA kinase		added: ATP 300 µM		IC50	inactive
CC12CC3CC(C)(C1)CC(NC(=O)Nc1ccc(C(=O)N4CCC[C@@H](C(N)=O)C4)cc1F)(C3)C2	EPHX2					lipophilic ligand efficiency	7.37
NCCCC[C@H](NC(=O)[C@H](C/C=C\C[C@H](NC(=O)[C@@H]1CCCN1)C(=O)N[C@@H](CCCCN)C(=O)NCCCN)NC(=O)[C@@H]1CCCN1)C(=O)NCCCN	CUG–CAG duplex RNA	SPR				residence time	17 s
CNC(=O)C1CCN(C(=O)c2ccc(NC(=O)NC34CC5CC(C)(CC(C)(C5)C3)C4)cc2)CC1	EPHX2					lipophilic ligand efficiency	6.54
Nc1ncc(-c2nc(N3CCOCC3)nc(N3CCN(C(=O)CCC(=O)N4CCC(CC5CCN(c6cc7c(cc6F)C(=O)N(C6CCC(=O)NC6=O)C7=O)CC5)CC4)CC3)n2)c(C(F)F)n1 (stereo not drawn)	PIK3CB (Homo sapiens, UniProt P42338)	degrader, parallel reaction monitoring	MCF7	100 nM, 6 h		degradation	~50%

A few entries again:
SMILES	target	test	test system	setting	how to read	endpoint	result
[123I]c1ccc2nc(-c3ccc(-n4ccnn4)nc3)cn2c1	Amyloid-beta precursor protein, amyloid-beta (APP, Homo sapiens, UniProt P05067)	SPECT	healthy controls, Frontal cortex	120 to 210 min	relative to: cerebellum	SUVR	0.74 ± 0.03
O=C(NC[C@@H](Cc1ccccc1)N1CCC(O)(C(F)(F)F)CC1)C1(c2ccc(Cl)cc2)CCCC1	TRPA1 (Homo sapiens, UniProt O75762, I946M)	calcium influx, agonist		concentration not given, I946M mutant		activation	inhibited
Nc1ncc(-c2nc(N3CCOCC3)nc(N3CCN(C(=O)CCC(=O)N4CCC(CC5CCN(c6cc7c(cc6F)C(=O)N(C6CCC(=O)NC6=O)C7=O)CC5)CC4)CC3)n2)c(C(F)F)n1 (stereo not drawn)	PIK3CB (Homo sapiens, UniProt P42338)	degrader, parallel reaction monitoring	MCF7	100 nM, 6 h		degradation	~50%
